Assay results of several laboratories.
“And” joins repeats or separate records; there may be more than shown. Numbers after ± are the reported error. Square brackets hold non-standard residues; d marks the D form. Ends that are not written are not given here.
Partner: itself
B1: rne 330-823 D694R/D738R (Mycolicibacterium smegmatis, UniProt A0R152); chain SDKSDDSEIQGISGSTRLEAKRQRRRDGRDAGRRRPPILSEAEFLARREAVERTMIVRDKVRTEPPHEGARYTQIAVLEDGVVVEHFVTSAASASLVGNIYLGIVQNVLPSMEAAFVDIGRGRNGVLYAGEVNWEAAGLGGQNRKIEQALKPGDYVVVQVSKDPVGHKGARLTTQVSLAGRYLVYVPGASSTGISRKLPDTERQRLKEILREVVPSDAGVIIRTASEGVKEEDIRSDVERLQKRWSEIEAKAAEVTEKKAGAAVALYEEPDVLVKVIRDLFNEDFSSLIVSGDEAWNTINSYVEAVAPDLMPRLTKYEPAGPDAPDVFAVHRIDEQLAKAMDRKVWLPSGGTLVIDRTEAMTVVRVNTGKFTGSGGNLEQTVTRNNLEAAEEIVRQLRLRDIGGIVVIRFIDMVLESNRDLVLRRLTEALARDRTRHQVSEVTSLGLVQLTRKRLGTGLVEAFSTACTHCGGRGIVLHGDPIDSASSNGGRKSD
B2: vapC L43A (Salmonella typhimurium, UniProt Q8ZM86); chain MLKFMLDTNTCIFTIKNKPEHIRERFNLNTSRMCISSITLMEAIYGAEKSLAPERNLAVVEGFISRLEVLDYDTQAAIHTGQIRAELARKGTPVGPYDQMIAGHAGSRGLVVVTNNLREFERIPGIRIEDWC
B3: Gag/MVP Gag 148-214 fused to MVP (HIV-1/Rattus norvegicus); chain MTPRTLNAWVKVVEEKAFSPEVIPMFTALSEGATPSDLNTMLNTIGGHQAAMQMLKDTINEEAAEWDRGFLGLMATEEAIIRIPPYHYIHVLDQNSNVSRVEVGPKTYIRQDNERVLFAPVRMVTVPPRHYCIVANPVSRDTQSSVLFDITGQVRLRHADQEIRLAQDPFPLYPGEVLEKDITPLQVVLPNTALHLKALLDFEDKNGDKVMAGDEWLFEGPGTYIPQKEVEVVEIIQATVIKQNQALRLRARKECFDREGKGRVTGEEWLVRSVGAYLPAVFEEVLDLVDAVILTEKTALHLRALQNFRDLRGVLHRTGEEWLVTVQDTEAHVPDVYEEVLGVVPITTLGPRHYCVILDPMGPDGKNQLGQKRVVKGEKSFFLQPGERLERGIQDVYVLSEQQGLLLKALQPLEEGESEEKVSHQAGDCWLIRGPLEYVPSAKVEVVEERQAIPLDQNEGIYVQDVKTGKVRAVIGSTYMLTQDEVLWEKELPSGVEELLNLGHDPLADRGQKGTAKPLQPSAPRNKTRVVSYRVPHNAAVQVYDYRAKRARVVFGPELVTLDPEEQFTVLSLSAGRPKRPHARRALCLLLGPDFFTDVITIETADHARLQLQLAYNWHFELKNRNDPAEAAKLFSVPDFVGDACKAIASRVRGAVASVTFDDFHKNSARIIRMAVFGFEMSEDTGPDGTLLPKARDQAVFPQNGLVVSSVDVQSVEPVDQRTRDALQRSVQLAIEITTNSQEAAAKHEAQRLEQEARGRLERQKILDQSEAEKARKELLELEAMSMAVESTGNAKAEAESRAEAARIEGEGSVLQAKLKAQALAIETEAELERVKKVREMELIYARAQLELEVSKAQQLANVEAKKFKEMTEALGPGTIRDLAVAGPEMQVKLLQSLGLKSTLITDGSSPINLFSTAFGLLGLGSDGQPPAQK
B4: vapC I44A (Salmonella typhimurium, UniProt Q8ZM86); chain MLKFMLDTNTCIFTIKNKPEHIRERFNLNTSRMCISSITLMELAYGAEKSLAPERNLAVVEGFISRLEVLDYDTQAAIHTGQIRAELARKGTPVGPYDQMIAGHAGSRGLVVVTNNLREFERIPGIRIEDWC
B5: PUT2 23-575 (Saccharomyces cerevisiae, UniProt P07275); sequence looked up; chain KPPKHIRNEPVKPFRNIDLKDWDLLRASLMKFKSSSLEVPLVINGERIYDNNERALFPQTNPANHQQVLANVTQATEKDVMNAVKAAKDAKKDWYNLPFYDRSAIFLKAADLISTKYRYDMLAATMLGQGKNVYQAEIDCITELSDFFRYYVKYASDLYAQQPVESADGTWNKAEYRPLEGFVYAVSPFNFTAIAANLIGAPALMGNTVVWKPSQTAALSNYLLMTVLEEAGLPKGVINFIPGDPVQVTDQVLADKDFGALHFTGSTNVFKSLYGKIQSGVVEGKYRDYPRIIGETGGKNFHLVHPSANISHAVLSTIRGTFEFQGQKCSAASRLYLPESKSEEFLSDMFGILQSQNVVPMNTSASPISGGNLRGFMGPVIHEQSFDKLVKVIEDAKKDPELEILYGGQYDKSQGWFVGPTVIKAKRPDHPYMSTEFFGPILTVYEYPDTEFNEICDIIDNTSQYALTGAIFAKDRKAIEYADEKLKFSAGNFYINDKCTGAVVSQQWFGGARMSGTDDKAGGPNILSRFVSIRNTKENFYELTDFKYPSNYE
B6: GCN4 leucine zipper heterodimer leucine zipper; C-terminal disulfide link; chain 1 MKVKQLVDKVEELLSKNYHLVNEVARLVKLVGERGGC; chain 2 MKVKQLEDVVEELLSVNYHLENVVARLKKLVGERGGC
B7: retS periplasmic 41-185 S45C (Pseudomonas aeruginosa, UniProt Q9HUV7); Alexa Fluor 488 or 555; chain ATTPCANQNWRLLRDESAQLRIADVLQRKEQFRPLAKRSFIFPASPQAVWLQVQLPAQKVPSWLWIFAPRVQYLDYYLVQDGQLVRDQHTGESRPFQERPLPSRSYLFSLPVDGKPMTLYVRMTSNHPLMAWFDQIDEAGLVGLE
B8: collagen-like peptide; hydroxyproline at 16,19,22,25,28,31,34,37; Hyp = O=C(O)[C@@H]1C[C@@H](O)CN1; chain CGPKGPKGPKGPKGP[Hyp]GP[Hyp]GP[Hyp]GP[Hyp]GD[Hyp]GD[Hyp]GD[Hyp]GD[Hyp]G
B9: estF trimer 2-272 T3C/Q174C (Pseudomonas fluorescens, UniProt P22862); chain SCFVAKDGTQIYFKDWGSGKPVLFSHGWLLDADMWEYQMEYLSSRGYRTIAFDRRGFGRSDQPWTGNDYDTFADDIAQLIEHLDLKEVTLVGFSMGGGDVARYIARHGSARVAGLVLLGAVTPLFGQKPDYPQGVPLDVFARFKTELLKDRAQFISDFNAPFYGINKGQVVSCGVQTQTLQIALLASLKATVDCVTAFAETDFRPDMAKIDVPTLVIHGDGDQIVPFETTGKVAAELIKGAELKVYKDAPHGFAVTHAQQLNEDLLAFLKR

| Molecule | assay | test system | setting | how to read | measurement | value |
| --- | --- | --- | --- | --- | --- | --- |
| B1 (rne 330-823 D694R/D738R) | SEC |  |  |  | subunits per oligomer | 2 and 4 |
| B2 (vapC L43A) | lacZ reporter |  |  | relative to: wild type, higher = more transcription | vapBC transcription | 5.2 fold |
| B3 | cryo-EM |  |  |  | subunits per oligomer | 78 |
| B4 (vapC I44A) | lacZ reporter |  |  | relative to: wild type, higher = more transcription | vapBC transcription | 1.4 fold |
| B5 (PUT2 23-575) | SAXS |  |  |  | subunits per oligomer | 6 |
| B6 | AUC |  |  |  | subunits per oligomer | 2 |
| B7 (retS periplasmic 41-185 S45C) | FRET |  | pH 7.4, 24 °C, NaCl 150 mM |  | Kd | 580 ± 50 nM |
| B8 (collagen-like peptide) | ITC | peptide | pH 5.0, 22 °C |  | binding | binds |
| B9 (estF trimer 2-272 T3C/Q174C) | dynamic light scattering |  |  |  | subunits per oligomer | 3 |

Excerpt of the above:
| Molecule | assay | test system | setting | how to read | measurement | value |
| --- | --- | --- | --- | --- | --- | --- |
| B4 (vapC I44A) | lacZ reporter |  |  | relative to: wild type, higher = more transcription | vapBC transcription | 1.4 fold |
